# Assay results pooled from the literature.
# A part holds a random share of what one study measured. Substitutions count along the parent as printed.

# Series 1
# Target: CCND3, cyclin fold, Cln2 fusion (human)
# Technique: yeast growth competition, sequencing
# Matrix: yeast
# Setting: weak parent motif
# Baseline: not given
# Reading: higher = stronger binding
# Starting sequence: ORC1 docking peptide (human); PRARKRLELGNLG
Variant,normalised enrichment score
G13P,0.0867
P1N,0.178
R4H,0.183
G13M,0.194
A3F,0.153
G10T,0.0773
N11E,0.067

# Series 2
# Target: RNA binding protein fox-1 homolog 2, RRM domain, GST-SBP tag (RBFOX2, Homo sapiens, UniProt O43251-10, residues 100-194)
# Technique: RNA Bind-n-Seq
# Molecule type: RNA
# Matrix: in vitro
# Concentration: 365 nM
# Setting: natural RNA segment, single round, ends assumed
# Baseline: no-protein control
# Reading: higher = stronger binding
# Target sequence (chain): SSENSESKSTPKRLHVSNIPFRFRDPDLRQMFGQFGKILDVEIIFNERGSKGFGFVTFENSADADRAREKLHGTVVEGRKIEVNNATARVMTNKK
Oligonucleotide,RBNS enrichment (R)
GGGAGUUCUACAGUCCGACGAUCGUGUGAGUGUGUGUGGGCGUGAGCGGGUGUGUACGUACCAAUAAACAUCCUGGUUUUAAGACAAUGUCAAAUGGUGUCAGUUUCUUCCUUCCUUCCUUCCUUCCUUCCUUUGGAAUUCUCGGGUGCCAA,1.17
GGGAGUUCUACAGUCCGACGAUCCUGUCCUUCCACACCAAAGACAUGGUGGUGCUGCUGCUGCUGCUUCUGCUGGUGAAGUCUGUGUCCAAGGCAGGGGCCAGCAGAAACUCCAGCCUGCUGUCUACCAAAGGUGGAAUUCUCGGGUGCCAA,0.266
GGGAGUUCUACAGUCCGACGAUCUACUGAUACAGUUAUUCUUUUUUUUAAAGAACAUUGUUUUAUAAAGAACGUGAUUUCCAGUGAUCUCUGGAAGCGCUAAAGCUAAAAUUUCUGUUCUUGAAACACUUCAGUGGAAUUCUCGGGUGCCAA,0.439
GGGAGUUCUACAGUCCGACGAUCAGGGCACUAGAAUGAUCUUUAGCCUUGCUUGGAUUGAACUAGGAGAUCUUGACUCUGAGGAGAGCCAGCCCUGUAAAAAGCUUGGUCCUCCUGUGACGGGAGGGAUGGUUUGGAAUUCUCGGGUGCCAA,1.04
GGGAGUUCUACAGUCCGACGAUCACAUGAAGGCUGUGGCAAUCUCAAGAAAUCAUUUUAAUUUGUACAUAUAUUUUCAGGUUCUGCCCACACUGUGAGGUUUUUCUAGAAUCACUGAGUUUCUGAUUUAGUAGUGGAAUUCUCGGGUGCCAA,0.8
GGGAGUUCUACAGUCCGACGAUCUGUGGACUUGGCUGUCUUGUGAUGUAUUUUUUUCAUAUGUAUCCUGUGCCAUACUAUUGUUAAAAUGAACUGUUGCUAUUGUGAGAUGGAUUUCCUUUCGAAUGGCACUAUGGAAUUCUCGGGUGCCAA,0.796
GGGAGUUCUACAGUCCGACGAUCCUCCUCCCCCUAAAAAGCUGACUCACUGUGAGUGACCUUGGGCAAGUUCCCAAACCUCCUUGUGCCUCAGUUUCCCCAUCUGGAAAAAAUGGGGCCACCUCUUGCCAGCAUGGAAUUCUCGGGUGCCAA,0.595
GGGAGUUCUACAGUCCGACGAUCCUUCCUCACCGCAGAUGUUUCUGCCUCUUAAGGAUAGAUCUUCUGCAACAGUCUUGCUGACAAGCUAGAGCUUGGACUGAAAGAGAAGAGCUGGAUUAUAUAUUUCCCAGUGGAAUUCUCGGGUGCCAA,0.286

# Series 3
# Target: Sal-like protein 4, full length isoform B (SALL4, Homo sapiens, UniProt Q9UJQ4-2, residues 1-616)
# Technique: universal PBM
# Molecule type: double-stranded DNA, one strand shown
# Matrix: in vitro
# Concentration: not given
# Setting: 8-mer, flanks averaged, mean of replicates
# Reading: higher = stronger binding
# Target sequence (chain): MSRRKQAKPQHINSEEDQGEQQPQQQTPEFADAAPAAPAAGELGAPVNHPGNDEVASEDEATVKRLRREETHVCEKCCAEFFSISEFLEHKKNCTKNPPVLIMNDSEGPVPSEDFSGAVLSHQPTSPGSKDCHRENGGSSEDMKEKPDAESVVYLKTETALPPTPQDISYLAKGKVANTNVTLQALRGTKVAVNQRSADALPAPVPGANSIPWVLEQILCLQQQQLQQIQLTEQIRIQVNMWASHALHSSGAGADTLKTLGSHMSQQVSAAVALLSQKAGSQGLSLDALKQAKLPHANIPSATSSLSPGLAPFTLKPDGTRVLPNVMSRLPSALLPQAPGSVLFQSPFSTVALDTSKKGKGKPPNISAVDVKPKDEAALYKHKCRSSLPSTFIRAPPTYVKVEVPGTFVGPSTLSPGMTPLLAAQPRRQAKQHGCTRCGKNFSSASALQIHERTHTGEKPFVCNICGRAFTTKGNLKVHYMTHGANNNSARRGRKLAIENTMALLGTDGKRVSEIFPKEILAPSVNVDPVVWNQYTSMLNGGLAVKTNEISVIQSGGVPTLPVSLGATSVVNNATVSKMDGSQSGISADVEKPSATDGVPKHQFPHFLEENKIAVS
Oligonucleotide,E-score
TAACTCTA,0.0836
GATATCGC,0.115
AAGGTGCA,-0.026
ACATAACG,0.284
GTCAAAAC,-0.0722
CCTGGCGA,-0.263
AACTGAGT,-0.00403
CGCGGGCA,-0.282
CCCTCATA,0.0419
GTATACAA,0.28
CGATTACA,0.121
CCCTTCAC,-0.0914
CGTAACCA,0.0574
CTGTCCGA,-0.137

# Further values, each from its own experiment
Substance,target,test,system,setting,how to read,endpoint,value
"PhoQ, residues 284 288 289 292 302 303 TVTVVA","PhoP, residues 12 14 15 18 19 AQCLL (Escherichia coli, UniProt P23836)","Sort-seq, measured: YFP reporter",E. coli,"PhoQ-PhoP variant library, together with: 10 µM Mg2+","baseline: high Mg2+ state, higher = stronger signaling",fold induction,0.869

# For quick reference, copied from above (series 3):
Oligonucleotide,E-score
CCCTTCAC,-0.0914
CTGTCCGA,-0.137
CCTGGCGA,-0.263
CGTAACCA,0.0574
CGATTACA,0.121
